Published values collected from several papers.
Compare with care: the assays were run in different laboratories. Numbers after ± are the reported error.
UCHL1: Ubiquitin carboxyl-terminal hydrolase isozyme L1 (UCHL1, Homo sapiens, UniProt P09936)
Sequence of UniProt P09936 (whole entry, looked up): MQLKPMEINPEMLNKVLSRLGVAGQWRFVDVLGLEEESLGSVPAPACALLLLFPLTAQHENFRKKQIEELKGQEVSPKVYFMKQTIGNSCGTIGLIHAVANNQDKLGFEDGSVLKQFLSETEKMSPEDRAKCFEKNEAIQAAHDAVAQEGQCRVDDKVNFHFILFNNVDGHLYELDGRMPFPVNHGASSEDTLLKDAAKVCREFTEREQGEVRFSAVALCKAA
LYN isoform B: Tyrosine-protein kinase Lyn, isoform B (LYN, Homo sapiens, UniProt P07948)
Sequence of UniProt P07948 (whole entry, looked up): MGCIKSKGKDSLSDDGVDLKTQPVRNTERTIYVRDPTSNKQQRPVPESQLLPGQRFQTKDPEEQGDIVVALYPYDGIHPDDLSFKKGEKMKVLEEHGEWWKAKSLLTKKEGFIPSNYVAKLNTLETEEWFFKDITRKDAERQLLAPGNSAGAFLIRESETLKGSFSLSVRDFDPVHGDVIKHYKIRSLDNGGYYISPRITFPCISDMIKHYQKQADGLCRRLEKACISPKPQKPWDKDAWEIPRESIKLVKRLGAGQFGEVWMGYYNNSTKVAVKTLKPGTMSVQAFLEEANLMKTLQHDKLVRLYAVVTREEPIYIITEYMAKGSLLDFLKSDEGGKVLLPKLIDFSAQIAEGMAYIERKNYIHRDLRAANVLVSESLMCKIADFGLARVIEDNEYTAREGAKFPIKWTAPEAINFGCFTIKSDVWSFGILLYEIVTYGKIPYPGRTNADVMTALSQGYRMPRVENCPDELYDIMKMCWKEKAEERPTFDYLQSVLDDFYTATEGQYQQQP
LYN: Tyrosine-protein kinase Lyn (LYN, Homo sapiens, UniProt P07948)
LYN isoform A: Tyrosine-protein kinase Lyn, isoform A (LYN, Homo sapiens, UniProt P07948)

Compound | target | test | setting | how to read | measurement | value
Cc1cc(C)c(NC(=O)C(C#N)=Cc2cc(F)ccc2F)c(C)c1 | UCHL1 | covalent, intact protein LC-MS | 12.5 µM | – | labelling | 33.5%
COc1cc2ncnc(Nc3ccc(Oc4ccccc4)cc3C)c2cc1OC | LYN isoform B | kinase activity, inhibitor | 1 µM | – | inhibition | 92%
CC/C(=N\NC(=O)NCc1cccc(O)c1)c1ccc(O)c(C)c1O | LYN isoform B | kinase activity | 0.1 µM | – | inhibition | 2.4%
CC#CC(=O)N1CCC[C@H]1c1nc(-c2ccc(C(=O)Nc3ccccn3)cc2)c2c(N)nccn12 | LYN | kinase activity, inhibitor, HotSpot radiometric | 100 nM, together with: ATP 10 µM | – | remaining activity | 103.9 ± 0.5%
[2H]c1cc(C)c(NC(=O)c2cnc(Nc3cc(N4CCC(O)CC4)nc(C)n3)s2)c(Cl)c1 | LYN isoform A | – | 0.001 µM | – | inhibition | > 50%
CC#CC(=O)NC1CCCN(C(=O)c2cccc(Cl)c2)C1 (stereo not drawn) | UCHL1 | covalent, intact protein LC-MS | 12.5 µM | – | labelling | 13.2%
[2H]c1cc(C)c(NC(=O)c2cnc(Nc3cc(N4CCCCC4)nc(C)n3)s2)c(Cl)c1 | LYN isoform A | – | 0.01 µM | – | inhibition | > 90%
COc1ccc(F)cc1C(=O)NCc1ccc(-c2nn([C@@H](C)C(F)(F)F)c(N)c2C(N)=O)cc1 | LYN | kinase activity, inhibitor, HotSpot radiometric | 100 nM, together with: ATP 10 µM | – | remaining activity | 87.2 ± 0.1%
O=C(CSc1nc2nccnc2c(=O)n1CCc1ccccc1)Nc1nccs1 | LYN | kinase activity, inhibitor | 10 µM | – | inhibition | 2%
Cc1cc(Nc2cc(N3CCN(C)CC3)nc(Sc3ccc(NC(=O)C4CC4)cc3)n2)[nH]n1 | LYN | kinase activity, KinaseProfiler | 0.03 µM, species human | reference: control | remaining activity | 90%
COc1cc(-c2cncc3c2CN(C)Cc2cc(N4CCNCC4)ccc2-3)cc(OC)c1OC | LYN | kinase activity | 1 µM, human enzyme, together with: ATP 10 µM | reference: DMSO control | remaining activity | 41%
C=CC(=O)N1CCC[C@@H](n2nc(-c3ccc(Oc4ccccc4)cc3)c3c(N)ncnc32)C1 | LYN isoform B | kinase activity, inhibitor, HotSpot radiometric | 100 nM, together with: ATP 10 µM | – | remaining activity | 52.1 ± 0.4%

For quick reference, copied from above:
Compound | target | test | setting | how to read | measurement | value
COc1cc2ncnc(Nc3ccc(Oc4ccccc4)cc3C)c2cc1OC | LYN isoform B | kinase activity, inhibitor | 1 µM | – | inhibition | 92%
COc1ccc(F)cc1C(=O)NCc1ccc(-c2nn([C@@H](C)C(F)(F)F)c(N)c2C(N)=O)cc1 | LYN | kinase activity, inhibitor, HotSpot radiometric | 100 nM, together with: ATP 10 µM | – | remaining activity | 87.2 ± 0.1%
